Published values of several laboratories.
Each numbered part is a random draw from the data of one study; scales do not carry over between parts.
Chain of UniProt P53778 (whole entry, looked up): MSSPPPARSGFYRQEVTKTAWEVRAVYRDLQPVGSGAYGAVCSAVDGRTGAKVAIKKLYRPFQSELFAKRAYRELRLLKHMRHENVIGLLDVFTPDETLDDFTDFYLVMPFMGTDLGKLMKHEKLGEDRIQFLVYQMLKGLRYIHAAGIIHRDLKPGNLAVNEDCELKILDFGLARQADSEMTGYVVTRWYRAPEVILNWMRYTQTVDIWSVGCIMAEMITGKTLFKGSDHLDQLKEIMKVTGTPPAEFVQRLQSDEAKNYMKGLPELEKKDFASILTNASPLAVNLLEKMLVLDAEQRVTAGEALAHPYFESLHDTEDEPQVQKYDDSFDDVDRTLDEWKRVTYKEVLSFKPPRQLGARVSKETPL
Chain of UniProt Q6P2M8 (whole entry, looked up): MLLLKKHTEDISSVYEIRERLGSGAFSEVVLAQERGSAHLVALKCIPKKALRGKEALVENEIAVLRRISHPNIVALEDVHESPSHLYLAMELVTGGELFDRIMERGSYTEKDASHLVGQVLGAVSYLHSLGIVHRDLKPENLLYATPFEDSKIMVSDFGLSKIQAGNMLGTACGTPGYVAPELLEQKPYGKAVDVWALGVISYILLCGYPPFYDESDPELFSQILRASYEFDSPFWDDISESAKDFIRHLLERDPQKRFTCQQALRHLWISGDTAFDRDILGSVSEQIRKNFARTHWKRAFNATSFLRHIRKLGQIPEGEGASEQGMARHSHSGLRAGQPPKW
Chain of UniProt O60331 (whole entry, looked up): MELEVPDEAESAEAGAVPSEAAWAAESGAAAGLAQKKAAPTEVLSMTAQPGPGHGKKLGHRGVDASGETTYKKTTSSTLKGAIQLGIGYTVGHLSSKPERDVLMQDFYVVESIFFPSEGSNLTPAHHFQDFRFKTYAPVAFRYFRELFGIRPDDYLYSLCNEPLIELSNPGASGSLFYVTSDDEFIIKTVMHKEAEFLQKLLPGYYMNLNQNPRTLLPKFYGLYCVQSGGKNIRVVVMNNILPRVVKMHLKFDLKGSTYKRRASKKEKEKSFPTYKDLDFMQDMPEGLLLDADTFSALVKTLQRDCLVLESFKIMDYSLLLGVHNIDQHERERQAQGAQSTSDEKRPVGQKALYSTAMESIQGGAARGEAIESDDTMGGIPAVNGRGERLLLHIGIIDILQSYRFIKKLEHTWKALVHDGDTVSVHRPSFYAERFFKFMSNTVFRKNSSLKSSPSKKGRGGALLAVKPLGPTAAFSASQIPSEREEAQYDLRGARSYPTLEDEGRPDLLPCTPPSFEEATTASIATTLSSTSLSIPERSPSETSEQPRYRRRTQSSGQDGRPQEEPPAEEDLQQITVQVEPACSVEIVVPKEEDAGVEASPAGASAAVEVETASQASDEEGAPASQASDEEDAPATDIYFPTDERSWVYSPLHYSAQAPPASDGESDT
Chain of UniProt Q16832 (whole entry, looked up): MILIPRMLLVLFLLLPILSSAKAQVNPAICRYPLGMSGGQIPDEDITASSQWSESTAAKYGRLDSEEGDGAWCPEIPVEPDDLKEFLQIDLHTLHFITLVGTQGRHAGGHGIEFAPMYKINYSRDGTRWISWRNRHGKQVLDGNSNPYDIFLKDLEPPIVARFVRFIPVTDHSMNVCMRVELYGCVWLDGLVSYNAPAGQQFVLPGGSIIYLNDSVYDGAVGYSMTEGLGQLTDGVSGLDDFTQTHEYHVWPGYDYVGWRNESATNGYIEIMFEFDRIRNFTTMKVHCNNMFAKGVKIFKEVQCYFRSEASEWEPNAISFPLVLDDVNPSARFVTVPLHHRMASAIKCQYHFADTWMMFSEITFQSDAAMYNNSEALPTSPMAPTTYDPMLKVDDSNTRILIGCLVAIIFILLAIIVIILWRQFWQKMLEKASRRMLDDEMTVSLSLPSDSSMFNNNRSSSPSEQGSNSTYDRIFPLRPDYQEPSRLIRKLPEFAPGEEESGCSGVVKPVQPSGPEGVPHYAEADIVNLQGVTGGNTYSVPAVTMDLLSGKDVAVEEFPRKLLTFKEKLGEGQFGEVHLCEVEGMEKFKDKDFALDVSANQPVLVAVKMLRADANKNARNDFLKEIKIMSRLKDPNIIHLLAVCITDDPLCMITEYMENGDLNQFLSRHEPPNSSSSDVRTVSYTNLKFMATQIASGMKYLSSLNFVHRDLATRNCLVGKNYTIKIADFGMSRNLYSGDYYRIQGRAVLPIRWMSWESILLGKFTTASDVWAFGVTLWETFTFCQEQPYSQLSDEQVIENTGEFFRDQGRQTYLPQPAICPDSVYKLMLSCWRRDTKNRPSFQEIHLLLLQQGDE
Chain of UniProt Q14680 (whole entry, looked up): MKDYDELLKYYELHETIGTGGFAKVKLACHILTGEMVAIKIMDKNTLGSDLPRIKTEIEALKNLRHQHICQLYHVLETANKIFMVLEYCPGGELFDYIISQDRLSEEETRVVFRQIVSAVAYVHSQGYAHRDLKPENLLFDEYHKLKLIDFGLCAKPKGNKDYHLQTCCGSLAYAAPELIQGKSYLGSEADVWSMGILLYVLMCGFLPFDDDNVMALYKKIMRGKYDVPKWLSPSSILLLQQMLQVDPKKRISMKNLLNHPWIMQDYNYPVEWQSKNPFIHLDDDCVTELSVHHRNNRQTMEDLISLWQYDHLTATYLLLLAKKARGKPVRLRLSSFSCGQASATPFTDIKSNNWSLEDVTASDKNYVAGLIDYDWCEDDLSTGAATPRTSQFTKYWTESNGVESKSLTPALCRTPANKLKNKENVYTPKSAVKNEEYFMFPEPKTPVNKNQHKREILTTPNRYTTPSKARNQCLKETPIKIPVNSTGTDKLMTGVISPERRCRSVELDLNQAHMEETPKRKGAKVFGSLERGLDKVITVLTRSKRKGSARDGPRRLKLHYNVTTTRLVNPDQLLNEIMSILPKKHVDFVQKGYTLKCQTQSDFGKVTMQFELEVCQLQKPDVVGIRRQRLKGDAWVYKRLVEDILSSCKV
Chain of UniProt Q9H2X6 (whole entry, looked up): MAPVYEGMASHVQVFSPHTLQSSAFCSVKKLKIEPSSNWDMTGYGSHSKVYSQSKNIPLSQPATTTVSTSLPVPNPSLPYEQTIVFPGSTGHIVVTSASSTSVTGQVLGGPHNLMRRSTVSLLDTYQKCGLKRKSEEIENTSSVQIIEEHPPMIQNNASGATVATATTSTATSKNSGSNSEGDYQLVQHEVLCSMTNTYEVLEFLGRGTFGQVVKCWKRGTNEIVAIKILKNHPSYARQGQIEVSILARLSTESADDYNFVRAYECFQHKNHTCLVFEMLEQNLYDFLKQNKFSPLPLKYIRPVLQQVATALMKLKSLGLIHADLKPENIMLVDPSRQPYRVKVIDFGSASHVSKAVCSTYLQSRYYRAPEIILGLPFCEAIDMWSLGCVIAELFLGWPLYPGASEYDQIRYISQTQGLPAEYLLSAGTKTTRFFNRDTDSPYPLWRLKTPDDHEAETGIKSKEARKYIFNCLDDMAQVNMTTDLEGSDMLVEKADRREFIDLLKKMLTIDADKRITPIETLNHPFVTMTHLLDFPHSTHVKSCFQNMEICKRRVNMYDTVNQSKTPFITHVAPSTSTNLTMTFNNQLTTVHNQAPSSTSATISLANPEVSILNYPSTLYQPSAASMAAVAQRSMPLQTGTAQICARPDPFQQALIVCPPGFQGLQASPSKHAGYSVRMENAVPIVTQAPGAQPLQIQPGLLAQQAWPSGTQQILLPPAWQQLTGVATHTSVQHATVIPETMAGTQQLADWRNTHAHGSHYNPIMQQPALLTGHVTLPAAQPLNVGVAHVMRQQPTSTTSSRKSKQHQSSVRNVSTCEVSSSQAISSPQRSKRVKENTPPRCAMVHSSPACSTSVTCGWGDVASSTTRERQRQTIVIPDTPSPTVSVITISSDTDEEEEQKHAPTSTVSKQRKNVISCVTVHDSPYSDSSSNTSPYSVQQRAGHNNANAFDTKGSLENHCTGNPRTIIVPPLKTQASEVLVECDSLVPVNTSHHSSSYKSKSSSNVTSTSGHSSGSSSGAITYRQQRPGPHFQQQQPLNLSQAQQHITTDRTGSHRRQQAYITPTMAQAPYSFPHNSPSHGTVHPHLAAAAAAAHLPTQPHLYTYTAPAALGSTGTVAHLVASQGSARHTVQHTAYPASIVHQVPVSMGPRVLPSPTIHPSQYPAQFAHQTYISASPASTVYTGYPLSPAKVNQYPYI

Series 1 — observed: cell-free assay; method: competition with immobilised ligand; concentration: 1 µM
Structure (SMILES): CCCOc1ccc([C@H]2[C@H](C(=O)O)[C@@H](c3ccc4c(c3)OCO4)CN2CC(=O)Nc2c(CC)cccc2CC)cc1
| target | remaining binding [%] |
| --- | --- |
| PIP5K1C (Homo sapiens, UniProt O60331) | 100 |
| MAK (Homo sapiens, UniProt P20794) | 97 |
| HIPK2 (Homo sapiens, UniProt Q9H2X6) | 66 |
| Tyrosine-protein kinase ABL1, non-phosphorylated (ABL1, Homo sapiens, UniProt P00519) | 70 |
| EGFR (Homo sapiens, UniProt P00533, del747-750/T751S) | 100 |
| MAPK12 (Homo sapiens, UniProt P53778) | 73 |
| CDK5 (Homo sapiens, UniProt Q00535) | 100 |
| Aurora kinase B (AURKB, Homo sapiens, UniProt Q96GD4) | 72 |
| CSNK1A1L (Homo sapiens, UniProt Q8N752) | 92 |
| MUSK (Homo sapiens, UniProt O15146) | 82 |
| PIP5K1A (Homo sapiens, UniProt Q99755) | 82 |
| STK38 (Homo sapiens, UniProt Q15208) | 77 |
| CSNK2A1 (Homo sapiens, UniProt P68400) | 69 |

Series 2 — host: mouse; sample: microsomes or S9; concentration: 2 µM; time: 0.5 h
| Compound | remaining compound [%] |
| --- | --- |
| OC(Cn1ccnc1)c1ccc(Cl)cc1Cl (stereo not shown) | 70.5 |
| O=c1ccc(-c2ccc(S(=O)(=O)Nc3cc(F)ccc3F)o2)n[nH]1 | 52.5 |
| CCNc1nc(NC(C)(C)C)nc(Oc2ccc(=O)n(CC)n2)n1 | 16.2 |
| CCc1cc2c(nc(-c3ccccc3)n3nnnc23)s1 | 96 |
| Cc1ccc(-c2noc(=O)n2Cc2ccc(S(=O)(=O)N(C)C)cc2)cc1 | 2.31 |
| Cc1cc2c(cc1CNC1(c3ccccc3F)CCCC1)OCO2 | 0.0141 |
| CC1(C)CC(n2[nH]c(=O)c3c2N=C(O)CSC3C2CCCCC2)CCO1 (stereo not shown) | 94.3 |
| CC(C)C(C)(NC(=O)c1ccccc1C#Cc1ccccc1)C(N)=O (stereo not shown) | 41.9 |
| COc1cc(=O)n2c(c1C(=O)Nc1ccc(C(F)(F)F)cc1)CCCC2 | 69.7 |
| CC(C)(C)Nc1oc(-c2ccc(S(=O)(=O)N3CCOCC3)o2)nc1C#N | 95.6 |
| C[C@H]1CCCC(=O)CCCCCc2cc(OCc3ccccc3)cc(O)c2C(=O)O1 | 22.3 |
| O=C1CCC(C(=O)N2CCOC(c3ccsc3)C2)n2cccc21 (stereo not shown) | 59.6 |
| C=CCc1c(C)nc2c(-c3ccccc3)cnn2c1NCCCn1ccnc1 | 63.3 |
| Cc1ccc(OCCCCN(C)C)c(C(C)(C)C)c1 | 2.66 |

Series 3 — observed: kinase activity; mode: inhibitor; concentration: 1 µM
Structure (SMILES): CC(C)S(=O)(=O)c1ccc2nccc(Nc3ccc4sc(C5CCCC5)nc4c3)c2c1.Cl
| target | remaining activity [%] |
| --- | --- |
| WEE1 (Homo sapiens, UniProt P30291) | 106 |
| PKN1 (Homo sapiens, UniProt Q16512) | 93 |
| RPS6KA2 (Homo sapiens, UniProt Q15349) | 96 |
| PHKG1 (Homo sapiens, UniProt Q16816) | 87 |
| PNCK (Homo sapiens, UniProt Q6P2M8) | 119 |
| CDK14 (Homo sapiens, UniProt O94921) | 107 |
| TAOK2 (Homo sapiens, UniProt Q9UL54) | 95 |
| DCLK1 (Homo sapiens, UniProt O15075) | 97 |
| MAP3K3 (Homo sapiens, UniProt Q99759) | 104 |
| SGK3 (Homo sapiens, UniProt Q96BR1) | 103 |
| MELK (Homo sapiens, UniProt Q14680) | 93 |
| DDR2 (Homo sapiens, UniProt Q16832) | 108 |
| STK25 (Homo sapiens, UniProt O00506) | 110 |

Series 4 — SMILES: C=CCc1ccc(O)c(-c2cc(CC=C)ccc2O)c1; observed: chloride current; method: whole-cell voltage clamp
ANO1 del476-501: Anoctamin-1 (ANO1, Homo sapiens, UniProt Q5XXA6, del476-501)
Chain of UniProt Q5XXA6 (whole entry, unmodified, looked up): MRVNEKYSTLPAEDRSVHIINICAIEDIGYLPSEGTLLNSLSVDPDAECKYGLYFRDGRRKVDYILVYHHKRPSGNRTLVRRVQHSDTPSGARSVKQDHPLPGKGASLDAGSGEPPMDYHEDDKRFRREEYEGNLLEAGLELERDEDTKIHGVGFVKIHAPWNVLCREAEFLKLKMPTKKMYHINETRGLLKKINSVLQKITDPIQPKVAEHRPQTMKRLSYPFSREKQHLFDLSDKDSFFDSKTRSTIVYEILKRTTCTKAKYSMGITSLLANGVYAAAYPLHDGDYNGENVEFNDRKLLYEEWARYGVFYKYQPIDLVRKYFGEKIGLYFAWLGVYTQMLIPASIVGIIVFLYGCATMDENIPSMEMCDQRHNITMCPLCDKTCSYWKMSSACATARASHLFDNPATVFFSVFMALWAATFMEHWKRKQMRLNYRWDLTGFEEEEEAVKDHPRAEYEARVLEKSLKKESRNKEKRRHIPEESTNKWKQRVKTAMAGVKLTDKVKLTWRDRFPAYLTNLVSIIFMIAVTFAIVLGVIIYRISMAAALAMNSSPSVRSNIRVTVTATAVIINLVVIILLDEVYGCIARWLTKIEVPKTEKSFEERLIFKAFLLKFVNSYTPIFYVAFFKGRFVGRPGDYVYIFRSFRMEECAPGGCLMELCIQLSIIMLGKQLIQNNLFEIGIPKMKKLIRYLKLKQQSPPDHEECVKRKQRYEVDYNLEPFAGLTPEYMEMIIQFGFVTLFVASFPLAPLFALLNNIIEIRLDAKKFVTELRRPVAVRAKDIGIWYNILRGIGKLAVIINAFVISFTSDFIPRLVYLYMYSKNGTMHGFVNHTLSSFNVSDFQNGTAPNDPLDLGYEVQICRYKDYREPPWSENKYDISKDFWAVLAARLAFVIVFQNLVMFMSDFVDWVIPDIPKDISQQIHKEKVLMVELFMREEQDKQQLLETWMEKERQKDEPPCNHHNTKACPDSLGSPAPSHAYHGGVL
ANO1 del476-501/R541I: Anoctamin-1 (ANO1, Homo sapiens, UniProt Q5XXA6, del476-501/R541I)
| target | test | setting | IC50 |
| --- | --- | --- | --- |
| Anoctamin-1 (ANO1, Homo sapiens, UniProt Q5XXA6, del476-501/F803A) | – | membrane voltage -20 mV | 26.1 µM |
| Anoctamin-1 (ANO1, Homo sapiens, UniProt Q5XXA6, del476-501/E650A) | – | membrane voltage 60 mV | 15 µM |
| Anoctamin-1 (ANO1, Homo sapiens, UniProt Q5XXA6, del476-501/E649D) | inhibitor | E623D mutant at -20 mV | 34.4 µM |
| Anoctamin-1 (ANO1, Homo sapiens, UniProt Q5XXA6, del476-501/R561A) | – | membrane voltage -20 mV | 23.7 µM |
| Anoctamin-1 (ANO1, Homo sapiens, UniProt Q5XXA6, del476-501/R541K) | inhibitor | R515K mutant at 40 mV | 18.5 µM |
| ANO1 del476-501 | – | membrane voltage -80 mV, added: 300 nM Ca2+ | 25.2 µM |
| ANO1 del476-501/R541I | inhibitor | R515I mutant at 100 mV | 134 µM |
| Anoctamin-1 (ANO1, Homo sapiens, UniProt Q5XXA6, del476-501/M544T) | inhibitor | 20 mV holding voltage | 22.5 µM |
| Anoctamin-1 (ANO1, Homo sapiens, UniProt Q5XXA6, del476-501/E649K) | inhibitor | mutant E623K | 128 µM |
| ANO1 del476-501 | – | membrane voltage 20 mV, added: 300 nM Ca2+ | 18.1 µM |
| ANO1 del476-501/R541I | inhibitor | R515I mutant at -20 mV | 42.3 µM |
| Anoctamin-1 (ANO1, Homo sapiens, UniProt Q5XXA6, del476-501/L548A) | inhibitor | pore pocket mutant L522A at 100 mV, added: 300 nM Ca2+ | 36.6 µM |

Excerpt of the above (series 4):
| target | test | setting | IC50 |
| --- | --- | --- | --- |
| Anoctamin-1 (ANO1, Homo sapiens, UniProt Q5XXA6, del476-501/E649K) | inhibitor | mutant E623K | 128 µM |
| ANO1 del476-501 | – | membrane voltage 20 mV, added: 300 nM Ca2+ | 18.1 µM |
| ANO1 del476-501/R541I | inhibitor | R515I mutant at -20 mV | 42.3 µM |
